# Measured values collected from several papers.
# Numbered parts are unrelated; each lists some results of a single study. Positions count from the first letter of the parent shown.

# Sample 1
# Target: CCNF, cyclin fold, Cln2 fusion (human)
# Method: yeast growth competition, sequencing
# Medium: yeast
# Notes: strong parent motif
# Reference: not given
# Direction: higher = stronger binding
# Starting sequence: SLBP docking peptide (human); ARYKRKLLINDFG; partner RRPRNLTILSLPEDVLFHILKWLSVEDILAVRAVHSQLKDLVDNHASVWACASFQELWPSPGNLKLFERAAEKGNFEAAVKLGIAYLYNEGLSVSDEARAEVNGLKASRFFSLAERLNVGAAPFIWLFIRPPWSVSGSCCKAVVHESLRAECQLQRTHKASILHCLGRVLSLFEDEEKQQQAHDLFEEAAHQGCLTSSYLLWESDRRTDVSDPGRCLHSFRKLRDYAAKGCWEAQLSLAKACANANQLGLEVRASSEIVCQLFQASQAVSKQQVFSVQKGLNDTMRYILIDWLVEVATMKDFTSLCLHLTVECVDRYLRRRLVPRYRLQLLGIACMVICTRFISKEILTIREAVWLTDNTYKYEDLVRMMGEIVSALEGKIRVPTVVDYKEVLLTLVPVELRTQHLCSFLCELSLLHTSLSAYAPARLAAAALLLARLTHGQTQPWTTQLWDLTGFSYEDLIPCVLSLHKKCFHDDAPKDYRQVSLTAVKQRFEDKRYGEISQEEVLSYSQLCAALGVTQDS
Change,normalised enrichment score
L8Q,1.32
Y3Q,1.63
K4L,2.43
K6F,1.6
N10L,3.65
F12I,1.59
Y3V,5.65
R5D,0.6
K6V,1.72
L7F,1.71
F12C,1.65
I9T,1.47
R2Q,2.27
L7V,1.35
G13L,0.482
F12K,6.06
R2V,1.59
N10I,2.54

# Sample 2
# Target: RNA binding protein fox-1 homolog 2, RRM domain, GST-SBP tag (RBFOX2, Homo sapiens, UniProt O43251-10, residues 100-194)
# Method: RNA Bind-n-Seq
# Form: RNA
# Medium: in vitro
# Tested at: 365 nM
# Notes: natural RNA segment, single round, ends assumed
# Reference: no-protein control
# Direction: higher = stronger binding
# Constant ends, left off below: GGGAGUUCUACAGUCCGACGAUC … UGGAAUUCUCGGGUGCCAA
# Residues (chain): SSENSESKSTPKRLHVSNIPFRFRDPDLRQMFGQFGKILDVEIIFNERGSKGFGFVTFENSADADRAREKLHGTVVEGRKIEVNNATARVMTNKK
Strand,RBNS enrichment (R)
AUAAGUAACAAGGAGCCAAAUGUUAAUCACUAAGACAUGGGGAAAAUGUCUGCAGGGCAUGUCAGAGACCUUUGCAGCAGUGCCUCCCAUCACAGGCCUGGAGGCCUAGG,0.682
ACAGCCUCAGCCGGGGCCACCAGCACUGCUGCCACUUCUUCCAGCCCCAGCCAAAGGCGUGGCUGUCAGGGCUGGGCCCUGUAGUGCUGGACUCUCCCGGGCCACAAUAG,0.403
AGCCUAGCCACAGAGUCUAAGAUUCUGUAUCCUCUGACAUUUUGGAAAUGAUACACUACUGGCUUAAGUGAUGACUCUUUCAGAUUUUCAGUAUUUUAUACAACUACUGC,0.326
ACUAAUUCUCAAAUGGCUCAAGAACAUUAGAAUUUAAGUACCUUUUAGAGUAAUUAUUUUAAGCAAAUAGCCUGGACGUAAGAGAUUCUCAUGCCAGCAUGCUUUCAUUU,2.27
UGGGGAGGGCCAGAGGAAGUGGUCUAUCUCAACUGUAAGGCCCAUCCCCUCUUAACCAUGACCAGCGGAAGCAGGUGUGUGUGACCAGGGCACGGGGUGAAGAAUCUGCC,0.224
UCAAGUUUGGUAUGGCCAGGGAGGGGCAGUCCUGAGGGAGAAGACGGUUCAGGGCAGUGCUCAGCAGCUGUGUGCUCCCCUGGUUGGGUCAUUAACCCUGCAGCUGCCUG,0.42
UAUGUAGAAUAACAUGAAAAAUUGGAGGUGCUGGUGGUAUGGCUGACCCUGUUUCAGAAGCAGGAUAGUAUAAAAGCAUCAGCCUAAGAAUGGCACUCCCACUAACUAGC,0.265
AUUUCCAAAAAAUGGCUAGAGGGAGAGUCCAGUUUCUGAGCUCUGUACCCAAAUUAAAAUCCUGAUGUUCAGGUUAAUCCAAGCAACACGCAUUGGGUUUAAAACCAGCA,2.41

# Sample 3
# Target: Prothrombin, mature alpha-thrombin (F2, Homo sapiens, UniProt P00734)
# Method: aptamer microarray, sandwich
# Form: DNA with 2'F-ANA
# Medium: in vitro
# Tested at: 200 nM
# Notes: whole 15-mer aptamer, many near background
# With: Cy3 exosite-II aptamer, 400 nM
# Direction: higher = stronger binding
# Strand: GGTTGGTGTGGTTGG
Modification,mean fluorescence intensity
2'F-ANA at 2 4 6 9 10 13 15,67.6 a.u.
2'F-ANA at 2 3 5 6 7 9 10 11 12 13,54 a.u.
2'F-ANA at 2 4 6 7 10 12 13 15,94.5 a.u.
2'F-ANA at 1 4 6 7 9 13 15,67.3 a.u.
2'F-ANA at 2 3 4 7 9 10 11 12 13,302 a.u.
2'F-ANA at 3 4 6 7 8 9 13,430 a.u.
2'F-ANA at 3 4 5 6 7 8 9 10 12 14 15,60.1 a.u.
2'F-ANA at 2 5 6 8,78.9 a.u.
2'F-ANA at 3 6 7 9,850 a.u.
2'F-ANA at 1 2 4 5 6 7 8 10 13 14 15,47 a.u.
2'F-ANA at 1 2 3 6 9 11 13 14 15,112 a.u.
2'F-ANA at 2 6 8 10,119 a.u.
2'F-ANA at 1 4 5 6 9 11 12 13 15,63.4 a.u.

# Other studies, line by line
Substance,target,assay,system,setting,how to read,quantity,result
"PhoQ, residues 284 288 289 292 302 303 SLCLSL","PhoP, residues 12 14 15 18 19 HHYTI (Escherichia coli, UniProt P23836)","Sort-seq, measured: YFP reporter",E. coli,"PhoQ-PhoP variant library, with: 10 µM Mg2+","reference: high Mg2+ state, higher = stronger signaling",fold induction,9.9

# Repeated from above (sample 1):
Change,normalised enrichment score
K4L,2.43
K6F,1.6
N10L,3.65
F12I,1.59
Y3V,5.65
